Results of several laboratories.
Compare with care: the assays were run in different laboratories. “And” joins repeats or separate records; there may be more than shown. ± marks the error that the study gave.

`O=C(O)c1ccc(-c2nc(-c3ccccc3Cl)c3sccn23)cc1`: “S phase cells” 30.7% and 30.5% and 31.6% (K562; flow cytometry; concentration not given; relative to: cells).
With `Cc1cc(Oc2nc(N3CC[C@@H](c4ccncc4)C3)ncc2F)[nH]n1` the IC50 was 49 µM (NCI-H358M; cell proliferation).
`CC(C)C[C@H](NC(=O)[C@H](CC(=O)O)NC(=O)CNC(=O)[C@@H](N)CCCNC(=N)N)C(=O)N[C@@H](C)C(=O)N[C@H](C(=O)N[C@@H](CC(C)C)C(=O)N[C@@H](CCCNC(=N)N)C(=O)N[C@@H](CCC(N)=O)C(=O)N[C@@H](CC(C)C)C(=O)N[C@@H](C)C(=O)N[C@@H](CCC(N)=O)C(=O)N[C@@H](CCC(=O)O)C(=O)N[C@@H](CC(=O)O)C(=O)NCC(=O)N[C@H](C(=O)N[C@H](C(=O)NCC(=O)N[C@H](C(=O)N[C@@H](CCCNC(=N)N)C(=O)NCCOCCOCCOCCOCCOCCOCCOCCOCCOCCOCCOCCOCCC(=O)N[C@@H](CS)C(N)=O)C(C)C)C(C)C)C(C)C)[C@@H](C)O` has a selectivity ratio of 1.4 ± 0.22 (H2882 lung carcinoma; cell binding, phage binding, measured: output/input phage; 10 min, 37 °C; relative to: control phage).
The GI50 of `CC(C)(C)C(=O)OCOP(=O)(OCOC(=O)C(C)(C)C)C1CCCN(O)C1=O` (centres unmarked) is reported as 673 nM (NCI-H322M).
For `CC(C)CC(O)(CC(C)C)c1cn(C(=O)N2CCCC2)nn1`, the protein level was 1.04 and 1.11 (mouse T-cells; SILAC proteomics, measured: Oxsr1; 1 nM, 6 h, single peptides, unit not given; relative to: DMSO).
`CCCCCCCCCC(=O)N[C@@H](CCCNC(=N)N)C(=O)N[C@@H](Cc1c[nH]c2ccccc12)C(=O)N[C@@H](CCCCN)C(=O)N[C@H](C(=O)N[C@@H](Cc1ccccc1)C(=O)N[C@@H](CCCCN)C(=O)N[C@@H](CCCCN)C(=O)N[C@H](C(=O)N[C@@H](CCC(=O)O)C(=O)N[C@@H](CCCCN)C(=O)N[C@H](C(=O)NCC(=O)N[C@@H](CCC(N)=O)C(=O)N[C@@H](CC(N)=O)C(=O)N[C@H](C(=O)N[C@@H](CCCNC(=N)N)C(=O)N[C@@H](CC(=O)O)C(=O)NCC(=O)N[C@H](C(=O)N[C@H](C(=O)N[C@@H](CCCCN)C(=O)N[C@@H](C)C(=O)NCC(=O)N1CCC[C@H]1C(=O)N[C@@H](C)C(=O)N[C@H](C(=O)N[C@@H](C)C(=O)N[C@H](C(=O)N[C@H](C(=O)NCC(=O)N[C@@H](CCC(N)=O)C(=O)N[C@@H](C)C(=O)N[C@@H](C)C(=O)N[C@H](C(=O)N[C@H](C(N)=O)[C@@H](C)CC)[C@@H](C)O)C(C)C)C(C)C)C(C)C)C(C)C)[C@@H](C)CC)[C@@H](C)CC)C(C)C)[C@@H](C)CC)[C@@H](C)CC` gave a dead cells of 60% (MX1; trypan blue exclusion; 6 µM, 24 h).
With `CC(C)[C@H](NC(=O)[C@H](CCCNC(=N)N)NC(=O)[C@@H]1CCCN1C(=O)[C@@H](NC(=O)[C@H](C)NC(=O)[C@H](Cc1ccc(O)cc1)NC(=O)[C@H](CCC(N)=O)NC(=O)[C@H](CCCCN)NC(=O)[C@H](CCCNC(=N)N)NC(=O)[C@@H]1CCCN1C(=O)[C@H](CCC(=O)O)NC(=O)[C@@H](NC(=O)[C@H](C)N)[C@@H](C)O)[C@@H](C)O)C(=O)N[C@@H](Cc1ccccc1)C(=O)N[C@@H](Cc1c[nH]c2ccccc12)C(=O)N[C@H](C(=O)N[C@@H](CC(=O)O)C(=O)N[C@@H](C)C(=O)N1CCC[C@H]1C(=O)NCC(=O)NCCOCCOCCOCCOCCOCCOCCOCCOCCOCCOCCOCCOCCC(=O)N[C@@H](CS)C(N)=O)[C@@H](C)O` the selectivity ratio was 3.9 ± 0.4 (H2126 lung adenocarcinoma; cell binding, phage binding, measured: output/input phage; 10 min, 37 °C; relative to: control phage).
`CC(=O)Oc1ccccc1C(=O)[Se]CC(=O)Nc1cccc(C(F)(F)F)c1` has a CC50 of 100 µM (NCI60 leukaemia subpanel; NCI60 five-dose screen).

A few entries again:
`CC(C)C[C@H](NC(=O)[C@H](CC(=O)O)NC(=O)CNC(=O)[C@@H](N)CCCNC(=N)N)C(=O)N[C@@H](C)C(=O)N[C@H](C(=O)N[C@@H](CC(C)C)C(=O)N[C@@H](CCCNC(=N)N)C(=O)N[C@@H](CCC(N)=O)C(=O)N[C@@H](CC(C)C)C(=O)N[C@@H](C)C(=O)N[C@@H](CCC(N)=O)C(=O)N[C@@H](CCC(=O)O)C(=O)N[C@@H](CC(=O)O)C(=O)NCC(=O)N[C@H](C(=O)N[C@H](C(=O)NCC(=O)N[C@H](C(=O)N[C@@H](CCCNC(=N)N)C(=O)NCCOCCOCCOCCOCCOCCOCCOCCOCCOCCOCCOCCOCCC(=O)N[C@@H](CS)C(N)=O)C(C)C)C(C)C)C(C)C)[C@@H](C)O` has a selectivity ratio of 1.4 ± 0.22 (H2882 lung carcinoma; cell binding, phage binding, measured: output/input phage; 10 min, 37 °C; relative to: control phage).
